# Results gathered from unrelated publications.
# Each numbered part is a random draw from the data of one study; scales do not carry over between parts.

# Sample 1
# Target: Histone acetyltransferase KAT6A, winged helix 1, GST fusion (KAT6A, Homo sapiens, UniProt Q92794, residues 1-85)
# Technique: protein binding microarray
# Molecule type: double-stranded DNA, one strand shown
# Sample: in vitro
# Tested at: not given
# Setting: 8-mer, flanks averaged, mean of 2 arrays, mostly near background
# Relative to: not given
# Direction: higher = stronger binding
# Residues (chain): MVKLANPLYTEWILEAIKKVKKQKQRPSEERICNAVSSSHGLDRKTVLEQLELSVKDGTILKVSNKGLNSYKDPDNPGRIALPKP
Sequence,E-score
TAAAGTAA,-0.0359
CAAGATGA,-0.241
GAAGAGGA,-0.0331
GTGTATCA,-0.16
CTTGCGGA,0.0567

# Sample 2
# Target: Sal-like protein 4, full length isoform A (SALL4, Homo sapiens, UniProt Q9UJQ4, residues 1-1053)
# Sequence of UniProt Q9UJQ4 (whole entry, looked up): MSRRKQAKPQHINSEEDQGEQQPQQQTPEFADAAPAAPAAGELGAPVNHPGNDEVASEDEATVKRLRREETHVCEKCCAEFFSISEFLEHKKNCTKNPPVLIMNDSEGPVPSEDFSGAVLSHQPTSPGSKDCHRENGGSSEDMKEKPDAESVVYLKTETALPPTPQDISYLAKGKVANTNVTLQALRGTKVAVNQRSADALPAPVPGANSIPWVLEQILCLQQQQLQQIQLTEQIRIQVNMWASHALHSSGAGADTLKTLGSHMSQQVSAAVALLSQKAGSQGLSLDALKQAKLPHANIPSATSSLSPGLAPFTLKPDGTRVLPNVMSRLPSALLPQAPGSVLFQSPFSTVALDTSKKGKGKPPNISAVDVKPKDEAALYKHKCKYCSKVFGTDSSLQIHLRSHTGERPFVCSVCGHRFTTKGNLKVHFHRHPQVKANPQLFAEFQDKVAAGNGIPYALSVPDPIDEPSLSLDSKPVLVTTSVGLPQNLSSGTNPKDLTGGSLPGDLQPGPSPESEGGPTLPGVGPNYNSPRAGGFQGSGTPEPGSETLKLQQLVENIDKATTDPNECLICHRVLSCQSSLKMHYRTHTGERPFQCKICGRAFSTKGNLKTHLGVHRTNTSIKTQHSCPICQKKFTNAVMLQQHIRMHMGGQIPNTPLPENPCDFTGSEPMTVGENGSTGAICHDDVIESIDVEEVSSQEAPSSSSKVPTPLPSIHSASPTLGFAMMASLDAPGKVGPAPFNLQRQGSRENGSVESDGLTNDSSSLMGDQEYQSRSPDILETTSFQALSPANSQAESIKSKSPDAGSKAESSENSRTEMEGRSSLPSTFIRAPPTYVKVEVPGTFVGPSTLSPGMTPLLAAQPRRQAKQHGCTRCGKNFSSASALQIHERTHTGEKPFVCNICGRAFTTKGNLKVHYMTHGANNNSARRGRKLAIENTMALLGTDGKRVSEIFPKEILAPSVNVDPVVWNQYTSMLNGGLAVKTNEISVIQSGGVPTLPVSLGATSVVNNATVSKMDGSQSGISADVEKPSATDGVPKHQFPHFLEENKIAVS
# Technique: universal PBM
# Molecule type: double-stranded DNA, one strand shown
# Sample: in vitro
# Tested at: 600 nM
# Setting: 8-mer, flanks averaged, mean of replicates
# Direction: higher = stronger binding
Sequence,E-score
CCACCGGA,-0.0833
CATGTGGA,-0.0592
GTCGGGAA,-0.0142
ATTAAACA,0.313
ATACGAAC,0.0972
TGAACGCA,0.122
CAGATAAG,0.0841
AGTTGGGG,-0.137
CAACGATA,0.252
CAGTCTCG,-0.207

# Sample 3
# Target: Prothrombin, mature alpha-thrombin (F2, Homo sapiens, UniProt P00734)
# Technique: aptamer microarray, sandwich
# Molecule type: DNA with 2'F-ANA
# Sample: in vitro
# Tested at: 200 nM
# Setting: whole 15-mer aptamer, many near background
# Added: Cy3 exosite-II aptamer, 400 nM
# Direction: higher = stronger binding
# Sequence: GGTTGGTGTGGTTGG
Modification,mean fluorescence intensity [a.u.]
2'F-ANA at 1 2 5 7 8 10 11 14,46.2
2'F-ANA at 2 5 7 10 11 13 15,46.6
2'F-ANA at 1 2 4 5 7 8 11 14 15,68
2'F-ANA at 1 3 7 8 9 11 12,479
2'F-ANA at 1 2 5 7 11 13 14,42.6
2'F-ANA at 2 5 7 9 10 13,47.1
2'F-ANA at 1 2 4 5 7 9 10 11 12 13 15,47.6

# Mixed results
Substance,target,test,system,setting,scale,measurement,value
"PhoQ, residues 284 288 289 292 302 303 NLMGRA","PhoP, residues 12 14 15 18 19 AQCLL (Escherichia coli, UniProt P23836)","Sort-seq, item: YFP reporter",E. coli,"PhoQ-PhoP variant library, added: 10 µM Mg2+","relative to: high Mg2+ state, higher = stronger signaling",fold induction,4.34
